Assay results from different studies.
± marks the error that the study gave.
Chain of UniProt P41143 (whole entry, looked up): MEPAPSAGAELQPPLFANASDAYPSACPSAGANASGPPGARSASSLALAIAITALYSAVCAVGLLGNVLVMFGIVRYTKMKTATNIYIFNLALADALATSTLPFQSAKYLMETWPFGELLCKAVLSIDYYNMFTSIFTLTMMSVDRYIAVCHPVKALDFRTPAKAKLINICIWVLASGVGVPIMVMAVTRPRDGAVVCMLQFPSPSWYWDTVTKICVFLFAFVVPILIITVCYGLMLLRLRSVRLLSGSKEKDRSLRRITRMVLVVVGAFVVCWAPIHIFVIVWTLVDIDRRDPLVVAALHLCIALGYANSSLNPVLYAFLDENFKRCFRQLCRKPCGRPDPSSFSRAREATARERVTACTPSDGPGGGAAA
Chain of UniProt P10635 (whole entry, looked up): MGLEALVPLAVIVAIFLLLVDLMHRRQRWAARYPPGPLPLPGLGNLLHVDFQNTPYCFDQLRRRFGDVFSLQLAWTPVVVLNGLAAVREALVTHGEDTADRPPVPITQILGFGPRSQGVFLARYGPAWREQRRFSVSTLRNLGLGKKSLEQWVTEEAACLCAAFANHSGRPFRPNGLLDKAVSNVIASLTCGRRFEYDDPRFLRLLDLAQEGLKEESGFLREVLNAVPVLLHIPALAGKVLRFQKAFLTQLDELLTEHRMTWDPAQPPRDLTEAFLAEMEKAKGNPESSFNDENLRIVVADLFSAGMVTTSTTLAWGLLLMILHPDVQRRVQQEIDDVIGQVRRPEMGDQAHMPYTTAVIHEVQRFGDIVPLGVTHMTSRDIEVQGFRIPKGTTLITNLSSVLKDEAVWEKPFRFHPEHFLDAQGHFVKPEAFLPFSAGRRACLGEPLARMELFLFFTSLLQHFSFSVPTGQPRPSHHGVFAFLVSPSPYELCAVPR
Chain of UniProt P37136 (whole entry, looked up): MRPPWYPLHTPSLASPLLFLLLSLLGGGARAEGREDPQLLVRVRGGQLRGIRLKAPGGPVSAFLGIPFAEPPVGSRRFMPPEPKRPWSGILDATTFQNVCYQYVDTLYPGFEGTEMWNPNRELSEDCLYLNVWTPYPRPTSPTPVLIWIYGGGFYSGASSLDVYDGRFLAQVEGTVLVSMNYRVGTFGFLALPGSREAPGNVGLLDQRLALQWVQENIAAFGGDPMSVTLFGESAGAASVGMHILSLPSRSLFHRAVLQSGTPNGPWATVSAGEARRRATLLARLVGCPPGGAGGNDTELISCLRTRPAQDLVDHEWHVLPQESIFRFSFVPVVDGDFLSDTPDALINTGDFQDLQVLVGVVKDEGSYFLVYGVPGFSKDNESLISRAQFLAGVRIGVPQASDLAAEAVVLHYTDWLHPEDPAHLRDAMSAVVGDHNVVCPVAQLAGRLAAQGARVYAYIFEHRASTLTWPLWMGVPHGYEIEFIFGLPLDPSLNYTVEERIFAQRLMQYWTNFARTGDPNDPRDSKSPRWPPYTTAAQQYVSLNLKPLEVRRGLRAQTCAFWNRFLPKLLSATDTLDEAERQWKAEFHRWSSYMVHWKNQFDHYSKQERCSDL
Chain of UniProt Q12879 (whole entry, looked up): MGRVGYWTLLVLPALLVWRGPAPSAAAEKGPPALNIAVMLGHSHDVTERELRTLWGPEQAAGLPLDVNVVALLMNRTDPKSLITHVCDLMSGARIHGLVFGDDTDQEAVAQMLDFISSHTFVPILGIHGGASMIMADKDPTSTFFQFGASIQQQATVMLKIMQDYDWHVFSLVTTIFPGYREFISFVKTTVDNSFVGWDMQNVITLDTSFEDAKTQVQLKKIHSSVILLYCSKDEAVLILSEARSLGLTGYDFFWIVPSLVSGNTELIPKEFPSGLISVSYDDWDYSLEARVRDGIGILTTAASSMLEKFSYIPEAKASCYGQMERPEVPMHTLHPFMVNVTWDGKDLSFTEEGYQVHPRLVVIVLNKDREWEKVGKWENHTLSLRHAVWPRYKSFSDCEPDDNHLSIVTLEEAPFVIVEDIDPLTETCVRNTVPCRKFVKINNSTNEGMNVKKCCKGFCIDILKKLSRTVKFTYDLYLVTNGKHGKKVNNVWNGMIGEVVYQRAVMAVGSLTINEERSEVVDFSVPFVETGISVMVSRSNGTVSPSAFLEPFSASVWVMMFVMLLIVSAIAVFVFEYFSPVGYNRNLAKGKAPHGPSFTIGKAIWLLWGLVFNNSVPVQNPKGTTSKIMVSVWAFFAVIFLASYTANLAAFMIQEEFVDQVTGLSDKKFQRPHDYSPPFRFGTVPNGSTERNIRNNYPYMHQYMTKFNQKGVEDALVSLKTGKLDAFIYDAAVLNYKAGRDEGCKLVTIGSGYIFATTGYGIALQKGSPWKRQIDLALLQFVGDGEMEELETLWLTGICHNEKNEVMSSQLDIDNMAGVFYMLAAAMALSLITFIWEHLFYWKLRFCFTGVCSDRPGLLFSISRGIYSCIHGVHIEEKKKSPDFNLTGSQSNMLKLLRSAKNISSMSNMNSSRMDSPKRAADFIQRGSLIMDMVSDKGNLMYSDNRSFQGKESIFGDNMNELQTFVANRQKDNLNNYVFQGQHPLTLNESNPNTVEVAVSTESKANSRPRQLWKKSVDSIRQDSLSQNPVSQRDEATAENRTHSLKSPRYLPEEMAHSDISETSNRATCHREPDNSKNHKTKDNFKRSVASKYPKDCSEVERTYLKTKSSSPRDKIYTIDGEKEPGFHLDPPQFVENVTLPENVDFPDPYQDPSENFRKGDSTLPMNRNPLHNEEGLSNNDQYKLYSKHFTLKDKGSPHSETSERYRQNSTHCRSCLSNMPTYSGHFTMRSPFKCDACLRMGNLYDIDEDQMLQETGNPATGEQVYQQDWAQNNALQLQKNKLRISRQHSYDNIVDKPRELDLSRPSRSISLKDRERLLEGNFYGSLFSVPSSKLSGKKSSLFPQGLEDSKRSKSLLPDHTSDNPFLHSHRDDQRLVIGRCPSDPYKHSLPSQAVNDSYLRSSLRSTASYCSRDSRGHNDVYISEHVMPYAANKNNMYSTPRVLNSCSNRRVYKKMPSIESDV

Molecule	tested on	test	system	setting	measurement	result
(+)-catechin gallate	–	transwell, HBSS	basolateral compartment, no cells	4 h, pH 7.4	mass recovered	not detected
SNC80	Delta-type opioid receptor, with Gi3 (OPRD1, Homo sapiens, UniProt P41143)	Gi3 activation, agonist	–	–	EC50	0.00331 µM
semaglutide	–	item: resolved with sequelae	human, safety analysis set	concentration not given, 32 weeks, run-in	participants with adverse events	0%
D-AP5	Glutamate NMDA receptor; GRIN1/GRIN2A (Homo sapiens, UniProt Q05586+Q12879)	ion current, antagonist, whole-cell patch clamp	HEK-293T expressing Glutamate NMDA receptor; GRIN1/GRIN2A	concentration not given	inhibition	98.1 ± 0.02%
phoxim-oxon	Acetylcholinesterase (Ache, Rattus norvegicus, UniProt P37136)	enzyme activity, inhibitor, Ellman	rat, postnatal day 70, lung homogenate	15 min, 37 °C	IC50	0.021 µM
deucravacitinib	–	multiple ascending dose	healthy human	oral, 6 mg twice daily	subjects with general disorders	0%
mitragynine	Cytochrome P450 2D6 (CYP2D6, Homo sapiens, UniProt P10635)	dextromethorphan O-demethylation, inhibitor	human liver microsomes	–	IC50	2.2 µM
ε-poly-L-lysine	–	–	Tris-Cl buffer	pH 7.5, room temperature	thermodynamic solubility	327 ± 81.3 mg/mL
